Assay results from different studies.
Compare with care: the assays were run in different laboratories. “And” joins repeats or separate records; there may be more than shown. ± marks the error that the study gave.
Rac GTPase-activating protein 1: Rac GTPase-activating protein 1 (Homo sapiens, UniProt Q9H0H5)
F12: Coagulation factor XII (F12, Homo sapiens, UniProt P00748)
MASTL: Serine/threonine-protein kinase greatwall (MASTL, Homo sapiens, UniProt Q96GX5)
USP14: Ubiquitin carboxyl-terminal hydrolase 14 (USP14, Homo sapiens, UniProt P54578)
Cacna1c: Voltage-dependent L-type calcium channel subunit alpha-1C (Cacna1c, Rattus norvegicus, UniProt P22002)
GABBR1: Gamma-aminobutyric acid type B receptor subunit 1 (GABBR1, Homo sapiens, UniProt Q9UBS5)
ELANE: Neutrophil elastase (ELANE, Homo sapiens, UniProt P08246)

O=C(O)C1Nc2ccc(Cl)cc2C2C=CCC12 (stereo not drawn)  inhibition (Rac GTPase-activating protein 1; enzyme activity, inhibitor, ADP detection; 10 µM): 73.2%
Cc1ccc(CNC(=O)C(CCc2ccccc2)NC(=O)C(NC(=O)Cc2cccc(Oc3ccccc3)c2)C(C)O)cc1 (stereo not drawn)  inhibition (F12; enzyme activity, inhibitor; 100 µM): 38%
CN1CCN(Cc2ccc(-c3ccc(CO[C@H]4CCC[C@@H]4NC(=O)c4cc(-c5cnn(C)c5)cnc4N)cc3)cc2)CC1  inhibition (MASTL; enzyme activity, inhibitor; 0.1 µM): 7%
CN(Cc1ccc(/C=C/C(=O)NO)cc1)CC12CC3CC(CC(C3)C1)C2  inhibition (alpha2 adrenoceptor; antagonist radioligand binding; 0.05 µM): -7%
C=CC(=O)N1Cc2nc(-c3cc(-c4cc(Cl)cnc4Cl)c(F)cc3F)n(-c3ccncn3)c2C1  inhibition (5'-AMP-activated protein kinase catalytic subunit alpha-1, with beta2, gamma1 (PRKAA1, Homo sapiens, UniProt Q13131); kinome panel; 1 µM): -1.8%
Cc1cc(O)c2c(c1)C(=O)c1cc(O)c(O)c(O)c1C2=O  inhibition (AVPR1A (Homo sapiens, UniProt P37288); calcium mobilization, antagonist, fluorimetry; 50 µM, added: 10 nM vasopressin): 61.1 ± 0.85%
O=C1C=CC(=O)C(Sc2nnnn2-c2ccccc2)=C1  inhibition (USP14; enzyme activity, inhibitor; 17 µM): 39%
C=CC(=O)Nc1cccc(Cn2ncc3cnc(Nc4cnn(CCOC)c4)nc32)c1  percent of control (CDK7 human; binding, KINOMEscan; 100 nM; lower = stronger binding): 55%
O=C(CSc1nnc2c(n1)CCCC2)c1ccc(N2CCCC2=O)cc1  inhibition (USP14; enzyme activity, inhibitor; 17 µM): 58%
O=C(/C=C/c1cccc(OS(=O)(=O)Oc2ccc(Br)cc2)c1)NO  inhibition (HDAC7 (Homo sapiens, UniProt Q8WUI4); enzyme activity, inhibitor, fluorescence; 10 µM): 36%
CNC(=O)C[C@H](Cc1ccc(C#N)cc1)NC(=O)c1cc(-c2ccc(CN[C@H](C)c3ccc(C)cc3)o2)ccc1Cl  inhibition (Oprk1 (Rattus norvegicus, UniProt P34975); agonist response, antagonist; 10 µM; reference: agonist control): 22%
O=C1C2=C(C(=O)c3ccccc31)C(c1ccccc1O)c1sc(=O)[nH]c1S2 (stereo not drawn)  inhibition (USP14; enzyme activity, inhibitor; 17 µM): 62%
Cc1cc(C)cc(COc2cc3c(cc2OCc2cc(C)cc(C)c2)[C@H]2C[C@@](O)(Cc4cn(Cc5ccc(F)cc5)nn4)C[C@@H](C)N2CC3)c1  inhibition (Rab GDP dissociation inhibitor beta, with Rab1A (Homo sapiens, UniProt P50395); GDI2-Rab1A interaction, NanoLuc complementation; 6.25 µM): 85%
CCc1nc2ccc(Cl)cn2c1C(=O)NC/C=C(\C)CC/C=C(\C)CCC=C(C)C  inhibition (Cytochrome b, in bc1 complex (COB, Candida albicans, UniProt P0C8L0); cytochrome c reduction; 10 and 1 µM): no inhibition
COc1ccc(S(=O)(=O)N2CCc3ccccc3C2)cc1N1CCN(C(=O)c2ccc(F)cc2C(F)(F)F)CC1  inhibition (Cacna1c; ligand displacement, radioligand; 1 µM): 17%
COC1CN([C@H]2CC[C@H]([C@@]3(C)Oc4c(Cl)cc(C(=O)NCc5c(SC)cc(C)[nH]c5=O)c(C)c4O3)CC2)C1  log2 fold change (RNA-seq, item: KAZN mouse homolog; mouse, HT-1376 xenograft, whole blood; dose not given; reference: vehicle): 0.634
O=c1ccsn1Cc1ccccc1  inhibition (Rac GTPase-activating protein 1; GAP activity, malachite green phosphate; concentration not given, orthogonal retest): 108%
CNS(=O)(=O)Nc1nccc(Cc2c(C)c3ccc(Oc4ncccc4F)cc3oc2=O)c1F  IC50 (OCI-Ly3; cell viability; 7 days): > 1 µM
O=C1C=C(N2CCOCC2)C(=O)N1c1ccc(Cl)cc1  inhibition (USP14; enzyme activity, inhibitor; 17 µM): 14%
Nc1ncc(-c2cc(-c3cnn(CC(F)(F)F)c3)ncc2F)nc1C(=O)NC1CNCC(F)C1 (stereo not drawn)  remaining binding (MAPKAPK2; KINOMEscan; 1 µM; reference: DMSO control): 85%
CC1=NN(c2ccccc2)C(=O)C1=C1C(=O)Nc2ccccc21  inhibition (USP14; enzyme activity, inhibitor; 17 µM): 92%
Cc1[nH]nc2c1N=C(c1ccccc1Cl)c1cnc(N3CCOCC3)cc1N2  inhibition (GABBR1; 10 µM, human off-target panel): 0%
CC(C)C[C@H](NC(=O)[C@H](Cc1ccc(O)cc1)NC(=O)[C@@H](CCCNC(=N)N)NC(=O)[C@@H](CO)NC(=O)[C@H](Cc1ccccc1)NC(=O)[C@H](CC1CCCCC1)NC(=O)[C@H](CC(=O)O)NC(=O)CN1CCN(CC(=O)O)CCN(CC(=O)O)CCN(CC(=O)O)CC1)C(=O)N[C@@H](Cc1c[nH]c2ccccc12)C(=O)N[C@@H](CO)C(=O)O [copper-64 labelled]  activity concentration (human, kidney; concentration not given, 24 h): 1130 Bq/mL and 1290 Bq/mL and 1220 Bq/mL and 1740 Bq/mL and 1650 Bq/mL and 2940 Bq/mL
Cc1ccc(CNC(=O)[C@H](CCc2ccccc2)NC(=O)[C@H](CCc2ccccc2)NC(=O)Cc2cccc(Oc3ccccc3)c2)cc1  inhibition (ELANE; enzyme activity, inhibitor; 100 µM): -6%
N=C(N)NCCCC(NC(=O)C(CC(=O)NO)Cc1ccc2ccccc2c1)C(=O)NC(Cc1c[nH]c2ccccc12)C(=O)NC(CCC(=O)O)C(N)=O (stereo not drawn)  inhibition (Cathepsin D (CTSD, Homo sapiens, UniProt P07339); 1 µM): -2%
COc1cccc(-c2cccc(N3CCNCC3)c2)c1  inhibition (srtA (Staphylococcus aureus, UniProt Q2FV99); enzyme activity, inhibitor; 200 µM): 63.7%
Cc1nc2c(F)cc(-c3nc(Nc4ccc(CNC(=O)CCCCCCC(=O)NO)cc4)ncc3F)cc2n1C(C)C  inhibition (Phosphatidylinositol 4,5-bisphosphate 3-kinase catalytic subunit alpha isoform, with p85 (PIK3CA, Homo sapiens, UniProt P42336); enzyme activity, inhibitor; 1 µM): 30%
c1ccc(CSc2nnc(-c3ccco3)c(-c3ccco3)n2)cc1  inhibition (Rac GTPase-activating protein 1; enzyme activity, inhibitor, ADP detection; 20 µM): 30.6%
COC(=O)c1sc2nc[nH]c(=O)c2c1CC(=O)O  inhibition (USP14; enzyme activity, inhibitor; 17 µM): 43%
Cc1cccc(O[C@H]2CCC[C@@H](C(C)CNCc3ccncc3)C2)c1 (relative stereo)  inhibition (PI4KB (Homo sapiens, UniProt Q9UBF8); enzyme activity, inhibitor; 10 µM): 12%
Clc1ccc(NCc2ccc(Br)cc2)cc1  inhibition (Rac GTPase-activating protein 1; enzyme activity, inhibitor, ADP detection; 20 µM): 72.2%
Cn1ccc2cc(-n3c(=O)[nH]c4sc5c(c4c3=O)CCCC5)ccc21  inhibition (SIGMAR1 (Homo sapiens, UniProt Q99720); cell-free assay, radioligand; 10 µM): -11%
N#C[C@@H]1CC(F)(F)CN1C(=O)CNC(=O)c1ccnc2c(NC(=O)[C@H](CCCCNC(=O)CCOCCOCCOCCOCCOCCOCCNC(=O)CN3CCN(CC(=O)[O-])CCN(CC(=O)[O-])CCN(CC(=O)[O-])CC3)NC(=O)CCCc3ccc(I)cc3)cccc12.[177Lu+3]  tracer uptake (U-87 MG tumour model; host not given, pancreas; 4 h, tumour-bearing): 2.19 %ID/g
CC(=O)C12NC(C)(C)CC1(C)C(=O)C1=C2c2c(c3c4n2C(C)(C)CC2=C4C4(CC(C)(C)NC(C)(C4)C2=O)CC3(C)C)C(=O)C(C)(C)N1 (single isomer, unassigned; (-))  inhibition (SCN10A (Homo sapiens, UniProt Q9Y5Y9); sodium current, antagonist, whole-cell patch clamp; HEK293T cells; 10 µM, resting state (TP1)): 32.92 ± 0.06%
CC(C)NC(=O)[C@H](CCc1ccccc1)NC(=O)[C@H](CC(=O)NCC(C)(C)C)NC(=O)CCc1ccccc1  inhibition (F12; enzyme activity, inhibitor; 100 µM): 35%
CN(C)C/C=C/C(=O)Nc1ccc2nc(NCCCCCN(C)C)nc(NCCCCCCN(C)C)c2c1  inhibition (SETD7 (Homo sapiens, UniProt Q8WTS6); enzyme activity, inhibitor, radiometric; 10 µM): 24%
CC1Cc2ccccc2N1C(=O)CN1CCN(c2ccccc2)CC1 (stereo not drawn)  inhibition (HTR2B (Homo sapiens, UniProt P41595); radioligand binding; concentration not given, added: [3H]LSD): 80%
CCSc1nnc2c(n1)OC(C(=O)c1ccccc1)Nc1ccccc1-2 (stereo not drawn)  inhibition (USP14; enzyme activity, inhibitor; 17 µM): 12%
C=CC(=O)Nc1cccc(-c2cnc3[nH]cc(C(=O)NC(C)(C)C)c3n2)c1  inhibition (RPS6KB2 (Homo sapiens, UniProt Q9UBS0); enzyme activity, inhibitor; 0.1 µM): -8%
Cc1ncsc1-c1ccc(C(C)NC(=O)C2CC(O)CN2C(=O)C(NC(=O)CCCCCCCCCCN2CCCC(Nc3ncc(Cl)c(Nc4ccccc4S(=O)(=O)C(C)C)n3)C2)C(C)(C)C)cc1 (stereo not drawn)  log2 fold change (22Rv1; RNA-seq, item: TRAFD1 mRNA; concentration not given; reference: DMSO): -1.1
Nc1ccc2c(c1)OC1(CCCCC1)O2  inhibition (Rac GTPase-activating protein 1; enzyme activity, inhibitor, ADP detection; 10 µM): 82.6%
O=C(NN=c1c(=O)c2ccccc2c1=O)c1ccncc1  inhibition (USP14; enzyme activity, inhibitor; 17 µM): 83%
CCn1cc(C(=O)O)c(=O)c2c(N)c(F)c(NC3CCCCC3)cc21  inhibition (MASTL; kinase activity; 0.1 µM, added: ATP at Km): -4.9%
O=C1CC(=O)N(c2ccccc2)N1c1ccccc1  inhibition (Rac GTPase-activating protein 1; enzyme activity, inhibitor, ADP detection; 10 µM): 26.4%
Cc1ccc(CN(C)C(=O)C(CCc2ccccc2)NC(=O)C(NC(=O)c2ccc(OCc3ccccc3)cc2)C(C)O)cc1 (stereo not drawn)  inhibition (F12; enzyme activity, inhibitor; 100 µM): 31%
C[Si](C)(C)C[C@@H](CN)CC(=O)O  inhibition (GABBR1; binding, radioligand binding; 75 µM, added: [3H]CGP-54626): -2%
C=C(NC(=O)c1csc(-c2nc3c(cc2O)-c2nc(cs2)C(=O)NC(C(C)O)C(=O)NC(=C(C)OC)c2nc(cs2)C(=O)NC2c4nc(cs4)C(=O)NC(COC(=O)c4c5c6c(cccc6n4O)COC(=O)C(OC4CC(C)(O)C(N(C)C)C(C)O4)C2OC5)c2nc-3cs2)n1)C(N)=O (stereo not drawn)  clearance (Sprague-Dawley rat, female, plasma; intravenous infusion, 6 mg/kg single dose): 42.8 mL/min/kg
Cc1nn(-c2cccc(N)c2)c(=O)c2cnc(Nc3ccc(N4CCNCC4)cc3)nc12  IC50 (CAMK4 (Homo sapiens, UniProt Q16566); SelectScreen kinase): > 10 µM
O=C1c2sc(-c3ccc(N4CCC(F)C4)nc3F)nc2CCN1c1cccnc1 (stereo not drawn)  inhibition (HTR7 (Homo sapiens, UniProt P34969); ligand displacement, radioligand; 1 µM): -13%
Cc1ccc(C(C2=C(O)CC(C)(C)CC2=O)C2=C(O)CC(C)(C)CC2=O)o1  inhibition (Rac GTPase-activating protein 1; enzyme activity, inhibitor, ADP detection; 10 µM): 49.7%
COCC(=O)N1CCc2cc(-c3csc(NC(=O)c4cc(OC)cc(OC)c4)n3)ccc21  inhibition (Cacna1c; ligand displacement, radioligand; 10 µM): 20%
Cc1ccc(C)n1-c1ccc(OCC(=O)O)cc1  inhibition (Rac GTPase-activating protein 1; enzyme activity, inhibitor, ADP detection; 20 µM): 51.4%
C[C@@H](O)[C@H](NC(=O)c1ccc(OCc2ccccc2)cc1)C(=O)N[C@@H](CCc1ccccc1)C(=O)NCc1ccccc1Cl  inhibition (ELANE; enzyme activity, inhibitor; 100 µM): -1%
C[Si]1(C[C@H](CN)CC(=O)O)CCCC1  inhibition (ADCYAP1R1 (Homo sapiens, UniProt P41586); ligand displacement, radioligand; 70 µM): 1%

Excerpt of the above:
CNS(=O)(=O)Nc1nccc(Cc2c(C)c3ccc(Oc4ncccc4F)cc3oc2=O)c1F  IC50 (OCI-Ly3; cell viability; 7 days): > 1 µM
O=C1C=C(N2CCOCC2)C(=O)N1c1ccc(Cl)cc1  inhibition (USP14; enzyme activity, inhibitor; 17 µM): 14%
Nc1ncc(-c2cc(-c3cnn(CC(F)(F)F)c3)ncc2F)nc1C(=O)NC1CNCC(F)C1 (stereo not drawn)  remaining binding (MAPKAPK2; KINOMEscan; 1 µM; reference: DMSO control): 85%
CC1=NN(c2ccccc2)C(=O)C1=C1C(=O)Nc2ccccc21  inhibition (USP14; enzyme activity, inhibitor; 17 µM): 92%
Cc1[nH]nc2c1N=C(c1ccccc1Cl)c1cnc(N3CCOCC3)cc1N2  inhibition (GABBR1; 10 µM, human off-target panel): 0%
CC(C)C[C@H](NC(=O)[C@H](Cc1ccc(O)cc1)NC(=O)[C@@H](CCCNC(=N)N)NC(=O)[C@@H](CO)NC(=O)[C@H](Cc1ccccc1)NC(=O)[C@H](CC1CCCCC1)NC(=O)[C@H](CC(=O)O)NC(=O)CN1CCN(CC(=O)O)CCN(CC(=O)O)CCN(CC(=O)O)CC1)C(=O)N[C@@H](Cc1c[nH]c2ccccc12)C(=O)N[C@@H](CO)C(=O)O [copper-64 labelled]  activity concentration (human, kidney; concentration not given, 24 h): 1130 Bq/mL and 1290 Bq/mL and 1220 Bq/mL and 1740 Bq/mL and 1650 Bq/mL and 2940 Bq/mL
